Measurements collected from several papers.
Each line is one published result; not all experiments were run side by side. Values joined by “and” are separate records of one study, mostly repeats; a detail may differ. ± gives the spread as reported.
Seed linoleate 13S-lipoxygenase-1: Seed linoleate 13S-lipoxygenase-1 (Glycine max, UniProt P08170)
Sequence of UniProt P08170 (whole entry, looked up): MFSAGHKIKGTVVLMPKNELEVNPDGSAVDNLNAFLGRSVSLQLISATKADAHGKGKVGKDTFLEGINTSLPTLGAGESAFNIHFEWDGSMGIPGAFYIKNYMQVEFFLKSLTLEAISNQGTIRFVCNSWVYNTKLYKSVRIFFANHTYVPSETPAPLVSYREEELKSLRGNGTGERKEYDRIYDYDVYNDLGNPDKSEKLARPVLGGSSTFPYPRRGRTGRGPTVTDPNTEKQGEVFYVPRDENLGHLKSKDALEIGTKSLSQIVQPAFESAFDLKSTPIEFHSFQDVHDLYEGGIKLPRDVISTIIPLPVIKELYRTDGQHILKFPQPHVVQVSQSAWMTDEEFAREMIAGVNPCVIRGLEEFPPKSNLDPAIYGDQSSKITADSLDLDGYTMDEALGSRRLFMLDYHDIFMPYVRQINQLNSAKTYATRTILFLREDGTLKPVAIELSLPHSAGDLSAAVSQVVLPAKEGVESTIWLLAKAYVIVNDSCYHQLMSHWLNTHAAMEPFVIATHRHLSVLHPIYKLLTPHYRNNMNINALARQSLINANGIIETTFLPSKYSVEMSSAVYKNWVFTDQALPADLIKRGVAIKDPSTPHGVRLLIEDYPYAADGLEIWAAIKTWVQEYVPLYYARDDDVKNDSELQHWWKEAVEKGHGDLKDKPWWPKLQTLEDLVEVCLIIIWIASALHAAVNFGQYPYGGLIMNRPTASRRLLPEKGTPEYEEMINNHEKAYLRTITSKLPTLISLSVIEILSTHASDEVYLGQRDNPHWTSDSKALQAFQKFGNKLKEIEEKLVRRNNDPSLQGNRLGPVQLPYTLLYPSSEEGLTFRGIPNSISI
EGLN2: Prolyl hydroxylase EGLN2 (EGLN2, Homo sapiens, UniProt Q96KS0)
Sequence of UniProt Q96KS0 (whole entry, looked up): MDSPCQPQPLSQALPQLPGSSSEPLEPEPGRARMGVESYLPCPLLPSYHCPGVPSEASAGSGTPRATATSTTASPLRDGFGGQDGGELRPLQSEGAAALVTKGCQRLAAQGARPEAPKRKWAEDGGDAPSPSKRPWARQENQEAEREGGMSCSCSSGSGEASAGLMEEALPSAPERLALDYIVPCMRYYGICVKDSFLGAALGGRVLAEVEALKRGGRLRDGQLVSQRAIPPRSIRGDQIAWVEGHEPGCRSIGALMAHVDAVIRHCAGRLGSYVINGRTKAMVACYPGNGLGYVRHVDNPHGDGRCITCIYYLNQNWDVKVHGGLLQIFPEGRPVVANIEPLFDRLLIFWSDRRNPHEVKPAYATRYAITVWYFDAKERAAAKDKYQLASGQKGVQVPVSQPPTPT
JAK2: Tyrosine-protein kinase JAK2 (JAK2, Homo sapiens, UniProt O60674)
Sequence of UniProt O60674 (whole entry, looked up): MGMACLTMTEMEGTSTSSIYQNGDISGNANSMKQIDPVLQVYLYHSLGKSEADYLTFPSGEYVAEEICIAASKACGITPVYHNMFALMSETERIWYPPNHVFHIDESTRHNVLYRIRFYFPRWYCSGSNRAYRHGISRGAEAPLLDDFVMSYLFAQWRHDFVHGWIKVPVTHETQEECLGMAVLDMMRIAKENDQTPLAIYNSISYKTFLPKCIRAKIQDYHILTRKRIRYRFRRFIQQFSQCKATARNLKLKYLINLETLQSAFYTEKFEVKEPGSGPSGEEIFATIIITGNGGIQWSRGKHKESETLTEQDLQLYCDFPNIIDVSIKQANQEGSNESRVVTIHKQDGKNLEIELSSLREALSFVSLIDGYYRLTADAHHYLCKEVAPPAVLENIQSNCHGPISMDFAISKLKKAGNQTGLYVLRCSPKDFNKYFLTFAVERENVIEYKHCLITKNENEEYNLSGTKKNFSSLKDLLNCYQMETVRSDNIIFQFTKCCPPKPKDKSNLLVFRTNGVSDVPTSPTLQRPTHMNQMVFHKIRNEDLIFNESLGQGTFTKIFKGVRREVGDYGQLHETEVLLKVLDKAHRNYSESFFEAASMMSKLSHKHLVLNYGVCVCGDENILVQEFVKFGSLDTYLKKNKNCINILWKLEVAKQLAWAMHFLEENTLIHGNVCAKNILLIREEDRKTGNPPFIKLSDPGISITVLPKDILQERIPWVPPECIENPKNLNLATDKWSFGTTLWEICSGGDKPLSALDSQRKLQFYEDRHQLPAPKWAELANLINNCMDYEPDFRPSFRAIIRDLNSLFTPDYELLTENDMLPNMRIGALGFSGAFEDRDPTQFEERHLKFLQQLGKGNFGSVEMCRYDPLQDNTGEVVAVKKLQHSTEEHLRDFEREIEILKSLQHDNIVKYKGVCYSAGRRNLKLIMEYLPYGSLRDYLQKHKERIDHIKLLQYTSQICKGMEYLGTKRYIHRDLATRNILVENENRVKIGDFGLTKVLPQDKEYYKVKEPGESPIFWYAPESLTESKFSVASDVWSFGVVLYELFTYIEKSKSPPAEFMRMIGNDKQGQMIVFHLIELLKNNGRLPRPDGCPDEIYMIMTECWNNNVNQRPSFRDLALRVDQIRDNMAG
EPHB2: Ephrin type-B receptor 2 (EPHB2, Homo sapiens, UniProt P29323)
Sequence of UniProt P29323 (whole entry, looked up): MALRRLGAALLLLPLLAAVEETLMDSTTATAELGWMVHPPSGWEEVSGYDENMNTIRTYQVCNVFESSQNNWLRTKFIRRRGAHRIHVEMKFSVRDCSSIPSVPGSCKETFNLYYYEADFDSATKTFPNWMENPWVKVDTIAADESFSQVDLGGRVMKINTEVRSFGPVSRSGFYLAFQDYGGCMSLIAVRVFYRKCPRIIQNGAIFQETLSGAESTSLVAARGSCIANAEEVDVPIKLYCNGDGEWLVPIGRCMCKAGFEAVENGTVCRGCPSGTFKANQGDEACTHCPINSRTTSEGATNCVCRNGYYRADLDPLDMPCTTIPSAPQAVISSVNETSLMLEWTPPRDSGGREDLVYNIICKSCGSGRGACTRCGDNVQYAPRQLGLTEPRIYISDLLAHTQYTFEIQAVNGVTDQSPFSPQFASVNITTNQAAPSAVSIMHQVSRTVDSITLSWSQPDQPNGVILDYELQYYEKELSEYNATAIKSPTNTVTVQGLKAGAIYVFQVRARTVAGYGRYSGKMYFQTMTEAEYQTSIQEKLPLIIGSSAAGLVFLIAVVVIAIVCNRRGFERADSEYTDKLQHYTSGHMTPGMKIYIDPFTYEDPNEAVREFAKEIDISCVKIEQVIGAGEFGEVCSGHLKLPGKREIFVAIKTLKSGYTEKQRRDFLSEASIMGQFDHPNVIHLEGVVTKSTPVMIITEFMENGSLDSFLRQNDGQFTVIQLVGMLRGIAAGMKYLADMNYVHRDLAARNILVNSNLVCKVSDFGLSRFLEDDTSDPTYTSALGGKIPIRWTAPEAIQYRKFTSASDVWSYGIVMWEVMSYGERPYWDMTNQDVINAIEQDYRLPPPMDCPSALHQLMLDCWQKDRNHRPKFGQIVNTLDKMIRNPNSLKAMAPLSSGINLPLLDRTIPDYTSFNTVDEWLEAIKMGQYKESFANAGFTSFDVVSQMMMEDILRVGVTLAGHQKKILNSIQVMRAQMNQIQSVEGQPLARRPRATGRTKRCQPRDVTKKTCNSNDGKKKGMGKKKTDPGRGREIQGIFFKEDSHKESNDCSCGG
PSMB7 in 20S proteasome: Proteasome subunit beta type-7, in 20S proteasome (PSMB7, Homo sapiens, UniProt Q99436)
Sequence of UniProt Q99436 (whole entry, looked up): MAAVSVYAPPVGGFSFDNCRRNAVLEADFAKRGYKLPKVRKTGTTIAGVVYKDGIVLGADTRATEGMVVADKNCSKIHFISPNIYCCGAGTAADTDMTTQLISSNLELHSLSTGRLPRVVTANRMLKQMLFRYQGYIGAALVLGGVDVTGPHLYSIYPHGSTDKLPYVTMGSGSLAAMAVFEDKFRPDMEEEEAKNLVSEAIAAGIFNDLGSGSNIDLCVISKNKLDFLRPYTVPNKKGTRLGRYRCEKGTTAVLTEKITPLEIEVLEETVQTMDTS
FGFR4: Fibroblast growth factor receptor 4 (FGFR4, Homo sapiens, UniProt P22455)
Sequence of UniProt P22455 (whole entry, looked up): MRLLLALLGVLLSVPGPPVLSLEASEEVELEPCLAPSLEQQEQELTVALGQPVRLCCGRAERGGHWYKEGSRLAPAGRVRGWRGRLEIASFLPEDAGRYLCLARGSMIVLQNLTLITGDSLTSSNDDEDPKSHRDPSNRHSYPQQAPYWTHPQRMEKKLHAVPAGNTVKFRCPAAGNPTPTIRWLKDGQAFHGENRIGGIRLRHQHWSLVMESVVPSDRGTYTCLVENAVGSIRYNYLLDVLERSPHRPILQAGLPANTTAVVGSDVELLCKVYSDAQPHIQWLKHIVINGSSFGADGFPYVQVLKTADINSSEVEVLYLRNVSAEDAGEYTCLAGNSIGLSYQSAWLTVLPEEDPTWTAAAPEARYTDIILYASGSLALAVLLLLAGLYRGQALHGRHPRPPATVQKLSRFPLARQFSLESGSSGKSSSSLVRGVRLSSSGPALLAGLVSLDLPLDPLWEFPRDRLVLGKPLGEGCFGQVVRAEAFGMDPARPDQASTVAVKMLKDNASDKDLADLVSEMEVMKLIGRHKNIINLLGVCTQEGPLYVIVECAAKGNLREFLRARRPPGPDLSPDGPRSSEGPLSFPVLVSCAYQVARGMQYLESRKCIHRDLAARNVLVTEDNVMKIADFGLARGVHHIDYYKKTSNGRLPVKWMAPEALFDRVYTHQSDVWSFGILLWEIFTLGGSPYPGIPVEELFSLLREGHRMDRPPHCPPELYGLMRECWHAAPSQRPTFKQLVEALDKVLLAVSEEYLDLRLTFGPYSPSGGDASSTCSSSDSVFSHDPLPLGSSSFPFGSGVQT
Sequence of UniProt P06240 (whole entry, looked up): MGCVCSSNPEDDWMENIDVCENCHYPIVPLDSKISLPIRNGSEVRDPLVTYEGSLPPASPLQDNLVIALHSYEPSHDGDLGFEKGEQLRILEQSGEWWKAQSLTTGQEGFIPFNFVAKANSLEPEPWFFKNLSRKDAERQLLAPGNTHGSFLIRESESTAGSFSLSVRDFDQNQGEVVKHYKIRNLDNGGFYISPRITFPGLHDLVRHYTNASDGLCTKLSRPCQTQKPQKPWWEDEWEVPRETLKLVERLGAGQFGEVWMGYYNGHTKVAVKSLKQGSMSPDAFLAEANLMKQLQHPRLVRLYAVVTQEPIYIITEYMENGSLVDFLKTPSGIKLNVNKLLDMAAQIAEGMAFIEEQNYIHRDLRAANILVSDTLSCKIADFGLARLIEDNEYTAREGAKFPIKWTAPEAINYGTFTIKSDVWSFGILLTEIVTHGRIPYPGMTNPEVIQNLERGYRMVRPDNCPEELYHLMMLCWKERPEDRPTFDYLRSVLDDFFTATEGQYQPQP

Compound	target	test	test system	conditions	IC50
COc1cc(-c2nc3ccc(C(=O)NCCCN4CCN(c5ccccc5)C(=O)C4)cc3n2C2CCC2)cc(OC)c1OC	Activin receptor type-1 (ACVR1, Homo sapiens, UniProt Q04771, R206H)	binding, NanoBRET	HEK293	–	2.27 µM
COc1cc(C(=O)NC2CCC(N3CCN(CC4CCC(C)C4)CC3)CC2)c(F)cc1Nc1ncc2c(n1)N(C1CCCC1(F)F)CC(F)(F)C(=O)N2C (stereo not shown)	Serine/threonine-protein kinase PLK1 (PLK1, Homo sapiens, UniProt P53350)	enzyme activity, inhibitor, ADP detection	–	–	4.73e-05 µM
C#CCO[C@H](C(=O)O)[C@H](N)C(=O)O (racemic)	Excitatory amino acid transporter 1 (SLC1A3, Homo sapiens, UniProt P43003)	transporter uptake, inhibitor, radiometric	–	–	6.9 µM
CC(C)C[C@H](NC(=O)[C@H](CC(N)=O)NC(=O)[C@H](CC(C)C)NC(=O)[C@@H](NC(=O)[C@@H](NC(=O)[C@@H]1CCCN1C(=O)[C@H](CCCNC(=N)N)NC(=O)[C@H](CCCCN)NC(=O)[C@@H]1CCCN1)[C@@H](C)O)[C@@H](C)O)C(=O)N[C@@H](Cc1ccccc1)C(=O)NCCCCCC(=O)N[C@@H](CCCNC(=N)N)C(=O)N[C@@H](CCCNC(=N)N)C(=O)N[C@@H](CCCNC(=N)N)C(=O)N[C@@H](CCC(N)=O)C(=O)N[C@@H](CCCNC(=N)N)C(=O)N[C@@H](CCCNC(=N)N)C(=O)N[C@@H](CCCCN)C(=O)N[C@@H](CCCCN)C(=O)N[C@@H](CCCNC(=N)N)C(=O)NCC(N)=O	Mitogen-activated protein kinase 14 (Mapk14, Mus musculus, UniProt P47811)	enzyme activity, inhibitor, radiometric	–	pH 7.5	13.7 µM
COc1cc(OC)c(C(=O)/C=C/c2ccccc2)c(O)c1O	Dipeptidyl peptidase 4 (DPP4, Sus scrofa, UniProt P22411)	enzyme activity, inhibitor, absorbance	–	–	28.7 µM
Cc1cccc(Cn2c(CN3CCN(C(=O)C4CC4)CC3)nc3c2c(=O)n(C)c(=O)n3C)c1	Aldehyde dehydrogenase, mitochondrial (ALDH2, Homo sapiens, UniProt P05091)	enzyme activity, inhibitor	–	–	7.7 µM
CCn1c(SC(C)C(=O)NCc2ccccc2)nnc1C1CCN(C(=O)Nc2ccccc2)CC1 (stereo not shown)	Seed linoleate 13S-lipoxygenase-1	enzyme activity, inhibitor	–	–	6.75 µM and < 7 µM
Cc1ccc(NCc2cn(-c3ccc(S(N)(=O)=O)cc3)nc2-c2ccc(OCc3ccccc3)cc2)cc1	Prostaglandin G/H synthase 1 (PTGS1, Homo sapiens, UniProt P23219)	enzyme activity, inhibitor, absorbance	–	–	134 µM
N=C(N)NCCC[C@@H](NC(=O)[C@H](Cc1c[nH]cn1)NC(=O)[C@H](CO)NC(=O)[C@H](Cc1c[nH]c2ccccc12)NC(=O)[C@H](Cc1c[nH]cn1)NC(=O)[C@@H]1CCC(=O)N1)C(=O)N[C@@H](Cc1c[nH]c2ccccc12)C(=O)N[C@@H](Cc1ccc(O)cc1)C(=O)N1CCC[C@H]1C(=O)NCC(N)=O	Gonadotropin-releasing hormone receptor (Rattus norvegicus, UniProt P30969)	ligand displacement in cells, radioligand	–	–	0.0005 µM
O=c1c(-c2cccnc2)c[nH]n1-c1cc(C(F)(F)F)ccn1	EGLN2	enzyme activity, inhibitor, europium VBC binding	–	10 µM FeSO4, 2 mM ascorbate, added: 20 µM 2-oxoglutarate	1.9 µM
Nc1ncc(-c2cnn(C3CCNCC3)c2)cc1-c1nc2ccc(O)c(Oc3cnccn3)c2o1	JAK2	enzyme activity, inhibitor, TR-FRET	–	–	1.1 µM
Cc1ccc(C=C2C(=O)c3ccccc3C2NC2CCCCC2)cc1 (racemic)	Dual specificity protein phosphatase 6 (Homo sapiens, UniProt Q16828)	ERK phosphorylation restoration, inhibitor, chemical complementation	HeLa transfected with c-Myc-DUSP6	15 min, added: TPA	64.7 ± 15.7 µM
[H]/N=C1/NC(=O)/C(=C\c2cccc(OC)c2OC)S1	Urea transporter 2, UT-A2 isoform (SLC14A2, Homo sapiens, UniProt Q15849)	urea transport, inhibitor	HEK293 transfected with wild-type SLC14A2	–	6.38 ± 0.54 µM
O=S1(=O)O[C@@H]2[C@H](CO)[C@@H](O)[C@H](O)[C@@H](O)[C@@H]2O1	Beta-glucosidase (GBA2, Homo sapiens, UniProt Q9HCG7)	enzyme activity, inhibitor	–	pH 5.8, with preincubation	58 µM
Cc1ccc(-c2cc(C(=O)Nc3cccnc3)c3cc(Br)ccc3n2)o1	Trypanothione reductase (TPR, Trypanosoma brucei brucei, UniProt P39051)	inhibitor, DTNB-coupled colourimetric	–	added: substrate at Km	7.2 µM
O=C(c1cccc(Br)c1)N1CCN(c2ccc(F)cc2)CC1	SEC14 (Saccharomyces cerevisiae, UniProt P24280)	enzyme activity, inhibitor, radiometric	–	–	> 100 µM
CNC(=O)C1CCN(c2ccccc2NC(=O)c2ccc(-c3cccc(O)c3)c(C)c2)CC1	EPHB2	target engagement in cells, BRET	–	–	133 µM
NC(=O)[C@@H]1CCNC(=O)[C@H](CCCNC(=O)c2cnccn2)NC(=O)[C@H](CC2CCCCC2)NC(=O)[C@H](C/C=C/c2ccccc2)NC(=O)/C=C\C(=O)N1	Proto-oncogene tyrosine-protein kinase LCK (Lck, Mus musculus, UniProt P06240)	enzyme activity, inhibitor, absorbance	–	–	> 100 µM
Nc1ncc(-c2cnn(C3CCNCC3)c2)cc1-c1nc2ccc(Cl)cc2o1	JAK2	enzyme activity, inhibitor, TR-FRET	–	–	0.77 µM
CC(=O)NCCN(CC(=O)NCCN(CC(=O)NCCN(CC(=O)NCCC(N)=O)C(=O)C[C@@H](N)Cc1ccccc1)C(=O)C[C@@H](N)Cc1ccccc1)C(=O)C[C@@H](N)CCCNC(=N)N	HIV-1 TAR RNA	Tat/TAR complex displacement, FRET	–	room temperature, added: 10 nM Tat/TAR complex	22.8 ± 0.8 µM
C=C(NC(=O)C(=C)NC(=O)c1csc(C2=NC3c4csc(n4)C4NC(=O)c5csc(n5)C(C(C)(O)C(C)O)NC(=O)C5CSC(=N5)C(=CC)NC(=O)C(C(C)O)NC(=O)c5csc(n5)C3(CC2)NC(=O)C(C(C)C)NC(=O)C(=C)NC(=O)C(C)NC(=O)C(C(C)CC)NC2C=Cc3c(C(C)O)cc(nc3C2O)C(=O)OC4C)n1)C(N)=O (stereo not shown)	PSMB7 in 20S proteasome	trypsin-like activity, inhibitor	purified 20S proteasome	15 min preincubation, 37 °C, added: Boc-Leu-Arg-Arg-AMC substrate	0.59 ± 0.04 µM
O=C1Nc2ccc(-c3ccc4cc(O)ccc4c3)cc2/C1=C/c1ccc(N2CCNCC2)cc1	FGFR4	enzyme activity, inhibitor	–	–	13.6 µM

Compound	target	test	test system	conditions	IC50
CC[C@H](C)[C@@H]1NC(=O)[C@H](Cc2ccc(O)cc2)NC(=O)[C@H](CC(N)=O)NC(=O)[C@H](CCC(N)=O)NC(=O)[C@@H]2CSSC[C@@H]3NC(=O)[C@H](CCC(=O)O)NC(=O)[C@H](Cc4c[nH]c5ccccc45)NC(=O)[C@@H]4CCCN4C(=O)[C@@H]4CCCN4C(=O)[C@@H]4CCCN4C(=O)[C@H](CCC(N)=O)NC(=O)[C@H](CC(C)C)NC(=O)[C@H](CCC(=O)O)NC(=O)[C@H](Cc4ccccc4)NC(=O)[C@H](CO)NC(=O)[C@H](Cc4ccc(O)cc4)NC(=O)[C@H](CO)NC(=O)CNC(=O)[C@H](CCCNC(=N)N)NC(=O)CNC(=O)[C@H](Cc4ccccc4)NC(=O)[C@H](CSSC[C@@H](C(=O)O)NC(=O)[C@H](CCC(N)=O)NC(=O)[C@H](Cc4ccc(O)cc4)NC3=O)NC(=O)[C@H](CSSC[C@H](NC(=O)[C@H](Cc3ccccc3)NC(=O)[C@H](C)N)C(=O)N[C@@H](Cc3ccc(O)cc3)C(=O)N[C@@H](CO)C(=O)N[C@@H](CC(=O)O)C(=O)N[C@@H](CCCNC(=N)N)C(=O)N[C@@H](Cc3ccccc3)C(=O)N2)NC(=O)[C@H](CC(=O)O)NC(=O)[C@@H]2CCCN2C(=O)[C@H]([C@@H](C)CC)NC(=O)[C@H](CO)NC(=O)CNC1=O	Tyrosyl-DNA phosphodiesterase 1 (TDP1, Homo sapiens, UniProt Q9NUW8)	enzyme activity, inhibitor, FRET	–	pH 7.4	> 10 µM
C=CC(=O)N1CCc2ccc(-n3c(=O)ccc4cnc5ccc(-c6cnn(C)c6)cc5c43)cc21	Tyrosine-protein kinase Yes (YES1, Homo sapiens, UniProt P07947)	enzyme activity, inhibitor	–	–	> 10 µM
COc1cc2ncnc(Nc3ccc(Oc4ccccc4)c(C)c3C)c2cc1OC	RAF proto-oncogene serine/threonine-protein kinase (RAF1, Homo sapiens, UniProt P04049, Y340D/Y341D)	inhibitor, ATP-biotin probe competition	–	–	> 10 µM
OC[C@@H]1NC[C@H](O)[C@@H]1O	Alpha-mannosidase (Canavalia ensiformis, UniProt C0HJB3)	enzyme activity, inhibitor, absorbance	–	pH 5	700 µM
O=C(CNC1CC1)N1CCc2sccc2C1COc1ccc(Cl)cc1Cl (stereo not shown)	Protein-cysteine N-palmitoyltransferase HHAT (HHAT, Homo sapiens, UniProt Q5VTY9)	enzyme activity, inhibitor	–	–	5.44 µM
O=c1c(-c2cccnc2)c[nH]n1-c1cc(N2CCCC2)ncn1	EGLN2	enzyme activity, inhibitor, europium VBC binding	–	10 µM FeSO4, 2 mM ascorbate, added: 20 µM 2-oxoglutarate	0.92 µM
N#C/C(=C\c1cccc(-c2ccncc2)c1)C(N)=O	Ribosomal protein S6 kinase alpha-3, C-terminal kinase domain (RPS6KA3, Homo sapiens, UniProt P51812)	enzyme activity, inhibitor	–	10 mM reduced glutathione, added: 0.1 mM ATP, peptide substrate	1.1 µM
COc1cccc(/C=C/C(=O)c2ccc(O)cc2C)c1OC	Seed linoleate 13S-lipoxygenase-1	enzyme activity, inhibitor, absorbance	–	–	53.8 µM
CC(C)C[C@H](NC(=O)[C@H](CCCNC(=N)N)NC(=O)[C@H](Cc1ccc(O)cc1)NC(=O)[C@H](C)N)C(=O)N[C@@H](CCC(=O)O)C(=O)NCC(=O)N[C@@H](CC(=O)O)C(=O)N[C@@H](CCCNC(=N)N)C(=O)N[C@@H](CO)C(=O)O	H-2 class I histocompatibility antigen, K-D alpha chain, 29 (H2-K1, Mus musculus, UniProt P01902)	binding, competitor, radioligand competition	–	purified MHC, mutant peptide, added: radiolabeled standard peptide	> 70 µM
COc1cc(Cc2c[nH]c3ncc(C(F)(F)F)cc23)cc(OC)c1	FGFR4	enzyme activity, inhibitor	–	–	0.712 µM
C=C(NC(=O)C(=C)NC(=O)c1csc(C2=NC3c4csc(n4)C4NC(=O)c5csc(n5)C(C(C)(O)C(C)O)NC(=O)C5CSC(=N5)C(=CC)NC(=O)C(C(C)O)NC(=O)c5csc(n5)C3(CC2)NC(=O)C(CC(N)=O)NC(=O)C(=C)NC(=O)C(C)NC(=O)C(C(C)CC)NC2C=Cc3c(C(C)O)cc(nc3C2O)C(=O)OC4C)n1)C(N)=O (stereo not shown)	PSMB7 in 20S proteasome	trypsin-like activity, inhibitor	purified 20S proteasome	15 min preincubation, 37 °C, added: Boc-Leu-Arg-Arg-AMC substrate	0.38 ± 0.06 µM
CN(C)c1ccc2c3c(cccc13)C(=O)N(C(CS)C(=O)O)C2=O (stereo not shown)	Metallo-beta-lactamase type 2 (Serratia marcescens, UniProt P52699)	enzyme activity, inhibitor	–	pH 7.0, added: chromacef 25 µM	1.02 ± 0.05 µM
Cn1cnc(C[C@H](NC(=O)C2CCCCN2)C(=O)N2CCC[C@H]2C(N)=O)c1 (stereo partly shown)	Thyrotropin-releasing hormone receptor (Mus musculus, UniProt P21761)	ligand displacement, radioligand	–	–	> 50 µM
Cc1cc(O)c2c(c1)C(=O)c1cc3oc(=O)cc(-c4ccc(Cl)cc4)c3c(O)c1C2=O	mushroom tyrosinase	enzyme activity	–	added: L-DOPA	> 100 µg/mL
C=C(NC(=O)C(=C)NC(=O)c1csc(C2=NC3c4csc(n4)C4NC(=O)c5csc(n5)C(C(C)(O)C(C)O)NC(=O)C5CSC(=N5)C(=CC)NC(=O)C(C(C)O)NC(=O)c5csc(n5)C3(CC2)NC(=O)C(C)NC(=O)C(=C)NC(=O)C(Cc2ccc(O)cc2)NC(=O)C(C(C)CC)NC2C=Cc3c(C(C)O)cc(nc3C2O)C(=O)OC4C)n1)C(N)=O (stereo not shown)	PSMB7 in 20S proteasome	trypsin-like activity, inhibitor	purified human 20S proteasome	37 °C, 15 min preincubation, added: Boc-Leu-Arg-Arg-AMC	0.34 ± 0.03 µM
CCn1c(-c2cc(NC(=O)c3cnccn3)n[nH]2)cc2ccccc21	Casein kinase II subunit alpha (CSNK2A1, Homo sapiens, UniProt P68400)	–	–	–	9.1 ± 0.39 µM
CC1=CC(C)(C)N=C(Nc2nc(C)c3cc(C)cc(C)c3n2)N1	ADP-ribosyl cyclase/cyclic ADP-ribose hydrolase 1 (CD38, Homo sapiens, UniProt P28907)	cyclase activity, fluorometric	–	added: NGD+ substrate	> 100 µM
N#Cc1c(Nc2c(Cl)ccc3ncccc23)s[nH]c1=O	NAD(+) hydrolase SARM1 (SARM1, Homo sapiens, UniProt Q6SZW1)	enzyme activity, inhibitor	–	–	1.2 µM
CNC(=O)C1CCN(c2cc(C)c(F)cc2NC(=O)c2ccc(-c3cc(O)ccc3C)c(C)c2)CC1	EPHB2	target engagement in cells, BRET	–	–	0.0699 µM
CC(=O)NCCN(CC(=O)NCCN(CC(=O)NCCN(CC(=O)NCCC(N)=O)C(=O)[C@@H](N)CCCCN)C(=O)[C@@H](N)Cc1ccccc1)C(=O)[C@@H](N)Cc1ccccc1	HIV-1 TAR RNA	Tat/TAR complex displacement, FRET	–	room temperature, added: 10 nM Tat/TAR complex	340.5 ± 0.4 µM
C=C(C)C(=O)Nc1ccc(-c2c(-c3ccc(Oc4nccc(C)n4)cc3)c3c(N)ncnc3n2C)cc1	Fibroblast growth factor receptor 2 (FGFR2, Homo sapiens, UniProt P21802)	Caliper mobility shift	–	30 min preincubation, added: 100 µM ATP	0.007 µM

A few entries again:
Compound	target	test	test system	conditions	IC50
OC[C@@H]1NC[C@H](O)[C@@H]1O	Alpha-mannosidase (Canavalia ensiformis, UniProt C0HJB3)	enzyme activity, inhibitor, absorbance	–	pH 5	700 µM
CCn1c(SC(C)C(=O)NCc2ccccc2)nnc1C1CCN(C(=O)Nc2ccccc2)CC1 (stereo not shown)	Seed linoleate 13S-lipoxygenase-1	enzyme activity, inhibitor	–	–	6.75 µM and < 7 µM
COc1cc(OC)c(C(=O)/C=C/c2ccccc2)c(O)c1O	Dipeptidyl peptidase 4 (DPP4, Sus scrofa, UniProt P22411)	enzyme activity, inhibitor, absorbance	–	–	28.7 µM
